Published values pooled from the literature.
Numbered parts are unrelated; each lists some results of a single study. Substitutions count along the parent as printed.
UniProt Q9NYY3, sequence (whole entry, looked up): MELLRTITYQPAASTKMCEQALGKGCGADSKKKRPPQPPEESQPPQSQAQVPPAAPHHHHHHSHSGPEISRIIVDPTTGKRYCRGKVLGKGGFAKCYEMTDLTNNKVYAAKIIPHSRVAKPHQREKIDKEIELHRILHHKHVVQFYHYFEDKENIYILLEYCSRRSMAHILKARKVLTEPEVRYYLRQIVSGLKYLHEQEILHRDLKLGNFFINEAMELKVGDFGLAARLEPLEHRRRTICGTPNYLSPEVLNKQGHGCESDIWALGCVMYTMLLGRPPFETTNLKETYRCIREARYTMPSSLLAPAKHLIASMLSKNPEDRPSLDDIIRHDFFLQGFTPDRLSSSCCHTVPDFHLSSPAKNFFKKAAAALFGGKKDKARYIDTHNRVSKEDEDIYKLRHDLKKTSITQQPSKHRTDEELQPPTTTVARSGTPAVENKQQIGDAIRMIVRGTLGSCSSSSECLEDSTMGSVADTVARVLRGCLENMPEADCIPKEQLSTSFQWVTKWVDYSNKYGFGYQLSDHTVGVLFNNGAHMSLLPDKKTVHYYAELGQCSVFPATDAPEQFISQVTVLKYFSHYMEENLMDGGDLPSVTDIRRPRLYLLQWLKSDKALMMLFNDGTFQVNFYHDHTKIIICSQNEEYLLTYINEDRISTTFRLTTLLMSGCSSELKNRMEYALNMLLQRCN

Study 1 — target: FOSB, bZIP domain (human); method: DHFR protein complementation; matrix: yeast; relative to: wild-type JUN-FOS pair; reading: higher = stronger binding
Notes: single substitutions, most at no-binding floor
Parent: JUN, bZIP domain (human); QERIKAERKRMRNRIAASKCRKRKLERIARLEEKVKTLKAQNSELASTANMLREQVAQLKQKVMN
Change	binding fitness [natural log]
Q41P	-1.53
L38H	-1.44
K36P	-1.36
L38P	-1.33
S43P	-1.22

Study 2 — method: protein-binding microarray; molecule type: hairpin DNA; matrix: in vitro; tested at: not given; relative to: not given; reading: higher = stronger binding
Target: FOXO3, forkhead domain (mouse, UniProt Q9WVH4, residues 31-263)
UniProt Q9WVH4, sequence (31-263, looked up): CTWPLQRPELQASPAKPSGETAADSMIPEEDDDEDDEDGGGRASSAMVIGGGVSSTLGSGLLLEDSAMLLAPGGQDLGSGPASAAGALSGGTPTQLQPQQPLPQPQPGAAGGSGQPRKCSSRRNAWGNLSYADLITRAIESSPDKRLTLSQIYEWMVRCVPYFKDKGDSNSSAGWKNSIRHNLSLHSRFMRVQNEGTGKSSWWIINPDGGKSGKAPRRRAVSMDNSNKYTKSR
Notes: whole hairpin DNA, median over replicate spots
Oligonucleotide	median fluorescence
GAGGCCATGCAAACAACGCCTCCTGGCGTTGTTTGCATGGCCTCACACTC	5150 a.u.
GAGGCCATGTAAACACGGCCTCCTGGCCGTGTTTACATGGCCTCACACTC	4860 a.u.
GAGGCCATGTAACCAAGGCCTCCTGGCCTTGGTTACATGGCCTCACACTC	3620 a.u.
GAGGCCATCGAAACAACGCCTCCTGGCGTTGTTTCGATGGCCTCACACTC	4420 a.u.
GAGGCCATGCGACCAACGCCTCCTGGCGTTGGTCGCATGGCCTCACACTC (5mC at 10)	4740 a.u.
GAGGCCATGCGACCAACGCCTCCTGGCGTTGGTCGCATGGCCTCACACTC	4940 a.u.
GAGGCCCGGCAAACAACGCCTCCTGGCGTTGTTTGCCGGGCCTCACACTC	5680 a.u.
GAGGCCATGCAAACCACGCCTCCTGGCGTGGTTTGCATGGCCTCACACTC	4560 a.u.

Study 3 — method: RNA Bind-n-Seq; molecule type: RNA; matrix: in vitro; tested at: not given; relative to: input RNA pool; reading: higher = stronger binding
Target: RING finger protein unkempt homolog, zinc fingers 1-6, GST-SBP tag (UNK, Homo sapiens, UniProt Q9C0B0, residues 30-357)
Notes: RNA with constant flanks, human-mouse chimeric sites, ends assumed
Shared flanks, not repeated: GGGAGUUCUACAGUCCGACGAUC … CAACAGAGGAUUGAGCAUCA
Target sequence (chain): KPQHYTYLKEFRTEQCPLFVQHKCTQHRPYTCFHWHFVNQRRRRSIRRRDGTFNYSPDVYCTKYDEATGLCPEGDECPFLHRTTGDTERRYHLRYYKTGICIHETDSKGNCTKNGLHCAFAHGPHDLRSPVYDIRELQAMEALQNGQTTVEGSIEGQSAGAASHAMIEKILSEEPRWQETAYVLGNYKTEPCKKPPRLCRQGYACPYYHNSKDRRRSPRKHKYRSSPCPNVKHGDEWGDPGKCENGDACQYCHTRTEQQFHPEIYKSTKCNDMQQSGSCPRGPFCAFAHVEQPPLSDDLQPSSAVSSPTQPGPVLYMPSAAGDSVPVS
Oligonucleotide	bound/input enrichment
UAAAUUAGGGCUGCCGUUUUCUGUUUCUCCCUGGGCUGCGGAAAGCCAGGCGGUUUUAUCUAGCUUAUACAAGGCUGCUGGUGUUCCCUCCCUCCCGCCACGAGGGUGUUUUUGGCUGCA	3.14 ratio
CUAAUCCCCUUUACUGCUCCCCCACUUCUCAUGGUAAUAACAAAGUCUUAUAUCCCCGUCCUAGCUUUCACUCAGAUGGCUUAUGGAGCCGGUUUCCUAUCUUUCUUGGGAGGGAUCAGA	0.536 ratio
CUCAGAGAUGUGGCAUAUCAGUAUGUGAAAAAGGGGGCUCGUAUAUUUUUGGAAGGGAAAGUGGACUAUGGCGAGUACAUGGAUAAAAAUAAUGUGAGGCGGCAAGCAACAACAAUCAUA	0.504 ratio
AACGUGGAGUUGAGUUCCUUGGCCCGGCUUCCCAGCUUGAAUAAACUCCGGAAGUUGGAGCUUAGUGAUAAUAUAAUUUCUGGAGGCUUGGAAGUCCUGGCAGAGAAAUGUCCAAAUCUU	4.16 ratio
UGACAAGCACGAGCAUCAGCCAUGCCUUUCCUUGACAUACAGAAAAAGCUGGGCAUCAACAUAGAUCGGCACUUUAUGUUCCUAAGCGCAGAACAGCCCUAUAAGAACGCCGCUCGGUGC	0.0818 ratio
AUAAAAGCUAUGUUGAGUGGUCCAGGUCAGUUUGCUGAGAAUGAAACCAACGAGGUCAAUUUUAGAGAGAUACCUUCACAUGUGCUAUCAAAAGUGUGCAUGUAUUUUACCUACAAGGUC	0.18 ratio
ACCAUUUUCGCGGUUCAGGCUUUGUGUGUAGUUCACUUACGGUAUUAAAUUAUUAUUGCCCUUAGUUUAUAAUAAGGAUAAUUGCAUUUAAAGAGGUUACUGAAUGUUGUUAUUGUUCUU	3.75 ratio
UUAUCCAAGACUCAACGAAAGACUCCAACGGUUAUUCAUAAACAUUAUCAAAUUCAUCGCAUUAGACAUUUUUAUAUGAGAAAAGUCAAAUUUACUCAACAGAAUUACCAUGAUAGACUG	9.62 ratio

Mixed results
SMILES	target	test	conditions	scale	endpoint	result
CN1CCN(c2ccc3nc(-c4c(N)c5c(F)cccc5[nH]c4=O)[nH]c3c2)CC1	Serine/threonine-protein kinase PLK2 (PLK2, Homo sapiens, UniProt Q9NYY3)	enzyme activity, inhibitor	0.5 µM	relative to: control	remaining activity	102%

Repeated from above (study 1):
Change	binding fitness [natural log]
Q41P	-1.53
L38P	-1.33
